Results collected from several papers.
Lines come from different studies, so protocols differ. Numbers after ± are the reported error.
Cell line: MCF7

`CC(C)(C)c1cc2c(O)c(c1)Cc1cc(C(C)(C)C)cc(c1OCC(=O)NCc1ccccn1)Cc1cc(C(C)(C)C)cc(c1O)Cc1cc(C(C)(C)C)cc(c1OCC(=O)NCc1ccccn1)COC2` has an IC50 of 5.4 µM (cell growth or viability, MTT; 72 h).
`CC(=O)OC[C@H]1O[C@@H](n2nc(-c3cc4ccccc4[nH]3)n(-c3ccccc3)c2=S)[C@H](OC(C)=O)[C@@H](OC(C)=O)[C@@H]1OC(C)=O` has an IC50 of 11.2 µM (cell growth or viability, MTT).
With `NS(=O)(=O)c1ccc(/N=N/c2ccc(O)c(/C=N/c3cc(Cl)ccc3O)c2)cc1` the IC50 was 5.07 µM (cell growth or viability, MTT; 48 h).
`COc1cc([C@@H]2c3cc4c(cc3[C@H](OC(=O)CCCc3ccc(NS(=O)(=O)c5ccccc5Br)cc3)[C@H]3COC(=O)[C@H]23)OCO4)cc(OC)c1OC` has an IC50 of 16.4 µM (cell growth or viability, CCK-8; 24 h).
The IC50 of `COC(=O)CNc1cc(CS(=O)(=O)c2ccc3ccccc3c2)ccc1OC` is reported as 0.14 µM (cell growth or viability, MTS; 48 h).
With `N#C[CH2][Pd]1[O]c2ccc(Br)cc2C=Nc2cccnc2[N]1C1CCCCC1` the IC50 was 27.1 µM (cell growth or viability, MTT; 48 h).
`COc1cc2c(=O)c(-c3ccc4c(c3)OCO4)coc2c2c1OC(C)(C)C=C2` gave an IC50 of 11.1 µM (cell growth or viability, MTT; 72 h).
`COc1ccc(-c2noc(NC(=O)c3ccc(F)c(F)c3)c2C#N)c(OC)c1` gave an IC50 of 70 µM (cell growth or viability, MTT; 72 h).
With `O=C(CCc1nc2cc(Cl)ccc2[nH]c1=O)NN1C(=O)c2ccccc2C1=O` the IC50 was 25.9 µM (cell growth or viability, MTT).
With `[NH2][Pt]1([NH2])([Cl])([O]C(=O)C(Cl)Cl)[O]C(=O)C2(CC(=O)C2)C(=O)[O]1` the IC50 was 27.1 µM (cell growth or viability, MTT).
With `CCCCCCCCCCCCCCn1c(-c2cccnc2)nc(-c2ccc(C)cc2)c1-c1ccc(C)cc1` the IC50 was greater than 100 µM (cell growth or viability, SRB; 24 h).
With `CC(C)c1cccc(C(C)C)c1-n1c(Cl)c(Cl)n(-c2c(C(C)C)cccc2C(C)C)c1=[Se].[Cl][Au]` the IC50 was 8.2 µM (cell growth or viability, MTT; 72 h).
`O=C1/C(=C/c2ccc3c(c2)OCCO3)SC(=S)N1[C@@H]1O[C@H](CO)[C@@H](O)[C@H](O)[C@H]1O` gave an IC50 of 7.17 µM (cell growth or viability, MTT; 48 h).
The IC50 of `Clc1ccc2ccc3[n+](c2c1)[Ir-3]12([c]4ccccc4-3)([c]3ccccc3-c3ccc4ccc(Cl)cc4[n+]31)[n+]1ccccc1-c1cccc[n+]12.F[P-](F)(F)(F)(F)F` is reported as 0.68 ± 0.13 µM (cell growth, MTT; 72 h).
With `CC(=O)[O-].O.O.[O-]c1ccc(Br)cc1C=NCCN1CCOCC1.[Zn+2]` the IC50 was 35.7 µg/mL (cell viability, MTT; 72 h).
The IC50 of `CCNC(=O)NC(=O)COC(=O)c1cn(-c2ccccc2)nc1-c1ccc(C)cc1C` is reported as 143 µM (cell growth or viability, MTT; 24 h).
With `O=C(NCCNc1n[n+]([O-])c2ccccc2[n+]1[O-])C(F)(F)F` the IC50 was 50 ± 5.2 µM (cytotoxicity, MTT; 24 h, normoxia).
The IC50 of `NS(=O)(=O)c1ccc(/N=N/c2ccc(O)c(/C=N/c3nccs3)c2)cc1` is reported as 6.82 µM (cell growth or viability, MTT; 72 h).
With `O=C(CSc1nc(-c2ccccc2)n[nH]1)N1CCC(=C2c3ncccc3CCc3cc(Cl)cc(Br)c32)CC1` the IC50 was 80 µM (cell growth or viability, SRB).
With `CSc1nc(Nc2cccc(/C(C)=N/NC(=O)c3ccccc3)c2)c(C#N)c(-c2ccccc2)n1` the IC50 was 25.2 µM (cell growth or viability, MTT; 48 h).
For `C/C(=N\NC(=S)NN)c1ccc(S(=O)(=O)N2CCC(C)CC2)cc1`, the IC50 was 24.6 to 122 µM (cell growth, MTT).
For `CCCn1c(-c2cccnc2)nc(-c2ccc(C)cc2)c1-c1ccc(C)cc1`, the IC50 was greater than 100 µM (cell growth or viability, SRB; 48 h).
`CN(C)CCO/N=C1/C=C2CCC3C(CC[C@]4(C)/C(=C/c5ccccn5)CCC34)[C@@]2(C)CC1` (stereo partly drawn) has an IC50 of greater than 100 µM (cell growth or viability, MTT; 72 h).
The IC50 of `N[C@@H](Cc1c[nH]c2ccccc12)C(=O)NC(CC(=O)N[C@@H](Cc1ccccc1)C(=O)O)c1ccc2ccccc2c1` (stereo partly drawn) is reported as greater than 100 µM (cell growth or viability, ATP luminescence; 72 h).
`Cc1cc(/C=C/c2ccc(O)c(O)c2)[nH]n1` has an IC50 of greater than 100 µM (cell growth or viability, MTT; 48 h).
With `CSc1nc(Nc2ccc(/C(C)=N/NC(=O)c3ccccc3Cl)cc2)c(C#N)c(-c2ccccc2)n1` the IC50 was 13.5 µM (cell growth or viability, MTT; 48 h).
For `COc1ccccc1/C=N/NC(=O)c1cc2cc(Nc3nccc(-c4cccnc4)n3)ccc2[nH]1`, the IC50 was 3.36 µM (cell growth or viability, MTT; 48 h).
The IC50 of `CCOc1cccc2c1[O][Pt-2]1([Cl])[N+](=C2)c2ccccc2[NH+]1c1ccccc1` (stereo not drawn) is reported as 11 µM (cell growth or viability, MTT).
For `CSC(=N/N=C(\C)c1ccc(S(=O)(=O)N2CCC(C)CC2)cc1)SC`, the IC50 was 18.8 µM (cell growth or viability, MTT).
`Cc1cc(N2CCN(C(=O)CN3CCN(c4ccccc4)CC3)CC2)n2ncnc2n1` has an IC50 of 6.93 µM (cell growth or viability, MTT).
`COc1ccc(Cn2cc(COc3c(OC)ccc4cc5[n+](cc34)CCc3cc4c(cc3-5)OCO4)nn2)cc1` has an IC50 of 46.7 µM (cell growth or viability, MTT).
With `COc1cc(/C=C/C(=O)/C=C(O)/C=C/c2ccc(OCC(=O)N3CCOCCOCCOCCOCCOCC3)c(OC)c2)ccc1OCC(=O)N1CCOCCOCCOCCOCCOCC1` the IC50 was 4.8 µM (cell growth or viability, SRB).
`CCN1CCC2(CC1)C/C(=N\NC(=O)Nc1ccc(OC)cc1)c1ccccc1O2` gave an IC50 of 39 µM (cell growth or viability, MTT; 48 h).
`O=C(c1ccc2ccccc2c1)c1cn(-c2ccccc2)nc1C1=Nn2c(CCCc3nnc4n3N=C(c3nn(-c5ccccc5)cc3C(=O)c3ccc5ccccc5c3)CS4)nnc2SC1` has an IC50 of 9.15 µM (cell growth or viability, MTT; 48 h).
For `N=c1c2sc3sc4c(=N)n(-c5ccccc5)c(=S)[nH]c4c3c2[nH]c(=S)n1-c1ccccc1`, the IC50 was 15.3 µM (cell growth or viability, MTT).
The IC50 of `CCNC(=O)Nc1ccc(S(=O)(=O)Oc2ccccc2CC)cc1` is reported as 4.7 µM (cell growth or viability, SRB; 48 h).
With `Cc1nc([N+](=O)[O-])c(N2CCNCC2)n1Cc1ccccc1` the IC50 was 85 µM (cell growth or viability, MTT; 72 h).
The IC50 of `CCCC(CCC)C(=O)[O][Pt]([Cl])([Cl])[O]C(C)=O.N.N` is reported as 5.74 ± 1.1 µM (cytotoxicity; 72 h).
`C=CC(=C)CC[C@]1(C)[C@H](C)C[C@H](OC(=O)CCCCCCC)[C@@]23C(=C[C@H](OC(C)=O)C[C@@H]12)[C@@H](OC(C)=O)O[C@H]3OC(C)=O` gave an IC50 of 6.39 µM (cell growth or viability, SRB).
The IC50 of `COc1c(OCc2ccccc2)cc2oc3cc(OCc4ccccc4)c(CC=C(C)C)c(O)c3c(=O)c2c1CC=C(C)C` is reported as 13 µM (cell growth or viability; 48 h).
For `c1ccc(-c2cc(-c3ccc(-n4cc(-c5ccc(-c6cccs6)s5)nn4)cc3)cc(-c3ccccn3)n2)nc1`, the IC50 was 1.79 µM (cell growth or viability, MTS; 72 h).
The IC50 of `COc1ccccc1CNC[C@](O)(COCc1ccccc1)[C@@H]1CC[C@@H](C)C[C@H]1OCc1ccccc1` is reported as 1.8 µM (cell growth or viability, MTT; 72 h).
`CC(=O)N[C@@H](Cc1c[nH]c2ccccc12)C(=O)[O][Re-2]1(=[C]=O)(=[C]=O)(=[C]=O)[n+]2c(C)cc(-c3ccccc3)c3ccc4c(-c5ccccc5)cc(C)[n+]1c4c32` has an IC50 of 2.98 µM (cell growth or viability, resazurin; 72 h).
`Cc1c(-c2cccc(C3=NCCN3)c2)oc(-c2cccc(C3=NCCN3)c2)c1C` has an IC50 of 0.9 µM (cell growth or viability, SRB).
The IC50 of `CCCCCCOc1c(O)cc(C(=O)O[C@@H]2Cc3c(O)cc(O)cc3O[C@@H]2c2cc(O)c(O)c(O)c2)cc1O` is reported as 50.5 µM (cell growth or viability, CCK-8; 24 h).
The IC50 of `CC=C(C)C(=O)OC1C(O)C2(COC(C)=O)C(O)CC3(C)C(=CCC4C5(C)CCC(OC6OC(C(=O)OC)C(OC7OC(CO)C(O)C(O)C7O)C(O)C6OC6OC(CO)C(O)C(O)C6O)C(C)(CO)C5CCC43C)C2CC1(C)C` (stereo not drawn) is reported as 53.9 µM (cell growth or viability, CCK-8; 48 h).
`O=C1CCCC2=C1C(c1cccs1)c1c([nH]c(=S)[nH]c1=S)O2` (stereo not drawn) has an IC50 of 15.2 µM (cell growth or viability, MTT; 72 h).
For `COc1ccc2cc3[n+](cc2c1OCc1cn(Cc2ccccc2)nn1)CCc1cc2c(cc1-3)OCO2`, the IC50 was 77.9 µM (cell growth or viability, MTT).
`CCCCCCCCCCCCCCCOC(=O)/C=C/c1cccc(OC)c1` gave an IC50 of 6.9 ± 1 µg/mL (cell viability, MTT; 48 h, serum-free medium).
The IC50 of `COc1ccc(CNC[C@](O)(COCc2ccccc2)[C@@H]2CC[C@@H](C)C[C@H]2OCc2ccccc2)cc1` is reported as 1.5 µM (cell growth or viability, MTT; 72 h).
The IC50 of `COc1c(O)cc2oc3cc(O)c(CCC(C)C)c(O)c3c(=O)c2c1CCC(C)C` is reported as 8.29 µM (cell growth or viability; 48 h).
`CC(=NNC(=S)NN=C(C(=NO)c1ccccc1)c1ccccc1)c1ccccc1` has an IC50 of 32.8 µM (cell growth or viability, MTT; 48 h).
For `CC(=O)O[C@@H]1C[C@H]2C(C)(C)[C@H](O)CC[C@]2(C)[C@H]2CC[C@]34C[C@]3(CC[C@H]4[C@@H](C)C[C@@H](O)[C@H](O)C(C)(C)O)[C@@]21C`, the IC50 was 6.1 µM (cell growth or viability, MTT).
`C=C(C)[C@H]1CC[C@@]2(C)CC[C@]3(C)C[C@H]4[C@@H](C)[C@H](O)C[C@H]4/C(C)=C\C[C@H]3[C@H]12` gave an IC50 of 8 µM (cell growth or viability, MTT; 72 h).

For quick reference, copied from above:
`COc1cc([C@@H]2c3cc4c(cc3[C@H](OC(=O)CCCc3ccc(NS(=O)(=O)c5ccccc5Br)cc3)[C@H]3COC(=O)[C@H]23)OCO4)cc(OC)c1OC` has an IC50 of 16.4 µM (cell growth or viability, CCK-8; 24 h).
The IC50 of `COC(=O)CNc1cc(CS(=O)(=O)c2ccc3ccccc3c2)ccc1OC` is reported as 0.14 µM (cell growth or viability, MTS; 48 h).
With `N#C[CH2][Pd]1[O]c2ccc(Br)cc2C=Nc2cccnc2[N]1C1CCCCC1` the IC50 was 27.1 µM (cell growth or viability, MTT; 48 h).
